# Assay results pooled from the literature.
# Protocols differ between the studies behind these lines. ± marks the error that the study gave.
# Cell line: MDCK
SMILES,observed,technique,time,CC50
COc1ccc(CNC23CC4C5CC6CC4C(C2)C(C6)C5C3)c(O)c1,,,,> 100 µM
COc1cc(-c2oc3cc(O[C@@H]4O[C@@H](C)[C@H](O)[C@@H](O)[C@H]4O)cc(O)c3c(=O)c2O[C@@H]2O[C@H](CO)[C@@H](O)[C@H](O)[C@H]2OC(=O)c2cc(O)c(O)c(O)c2)ccc1O,,MTT,48 h,> 133 µM
CCC1(O)C([N+](=O)[O-])=NNc2nc(C(F)(F)F)nn21 (stereo not shown),,MTT,48 h,432 ± 28 µM
COc1cc(-c2oc3cc(O)cc(O)c3c(=O)c2O[C@@H]2O[C@H](CO[C@@H]3O[C@@H](C)[C@H](OC(C)=O)[C@@H](O)[C@H]3OC(C)=O)[C@@H](O)[C@H](O)[C@H]2O)ccc1O,,MTT,48 h,> 141 µM
CCC1(O)C([N+](=O)[O-])=NNc2nc(C)nn21 (stereo not shown),,MTT,48 h,907 ± 78 µM
COc1cc(-c2oc3cc(O[C@@H]4O[C@H](CO)[C@@H](O)[C@H](O)[C@H]4O)cc(O)c3c(=O)c2O[C@@H]2O[C@H](CO[C@@H]3O[C@@H](C)[C@H](OC(C)=O)[C@@H](O)[C@H]3OC(C)=O)[C@@H](O)[C@H](O)[C@H]2O)ccc1O,,MTT,48 h,> 115 µM
c1nc(N2CCCCCC2)cnc1CNC12CC3CC(CC(C3)C1)C2,,MTT,,45.7 µM
COc1cc(-c2oc3cc(O[C@@H]4O[C@@H](C)[C@H](O)[C@@H](O)[C@H]4O)cc(O)c3c(=O)c2O[C@@H]2O[C@H](COC(=O)c3cc(O)c(O)c(O)c3)[C@@H](O)[C@H](O)[C@H]2OC(=O)c2cc(O)c(O)c(O)c2)ccc1O,,MTT,48 h,> 108 µM
COc1ccc(CNc2ccc(C34CC5CC(CC(C5)C3)C4)cc2)c(O)c1,,,,> 100 µM
CC(=O)OC[C@H]1O[C@@H](Oc2cc(C)c3c(c2)C(=O)c2cccc(O)c2C3=O)[C@H](OC(C)=O)[C@@H](OC(C)=O)[C@@H]1OC(C)=O,cell growth or viability,crystal violet,72 h,> 100 µM
CCOC(=O)c1nc2n(n1)C(O)(CC)C([N+](=O)[O-])=NN2 (stereo not shown),,MTT,48 h,> 1060 µM
CN(C)CC(=O)O[C@@H]1C[C@@H]2CC[C@@]1(C)C2(C)C,cell growth or viability,MTT,48 h,597 µM
CCN(CC)CC#CCOC(=O)[C@]1(C)CCC[C@]2(C)c3ccc(C(C)C)cc3CC[C@@H]12,cytotoxicity,MTT,48 h,21 µM
CCN(CC)CC(=O)O[C@@H]1C[C@@H]2CC[C@@]1(C)C2(C)C,cell growth or viability,MTT,48 h,79 µM
CCN(CC)CC#CCOC(=O)[C@]1(C)CCC[C@]2(C)[C@H]3C[C@H]4C(C(C)C)=C[C@]3(CC[C@H]21)[C@@H]1C(=O)OC(=O)[C@@H]14,cytotoxicity,MTT,48 h,77 µM
O=C1/C(=N\NC(=S)NN=Cc2cccs2)c2ccccc2N1Cc1ccccc1,,MTS,,46 µM
CCN(CC)CC#CCO[C@H]1CC[C@H](O)[C@@H]2[C@H]1[C@H]1C[C@@H]3[C@@]4(C)CCC[C@@](C)(C(=O)OC)[C@@H]4CC[C@@]23C=C1C(C)C,cytotoxicity,MTT,48 h,92 µM
CN(C)CCCC(=O)O[C@@H]1C[C@@H]2CC[C@@]1(C)C2(C)C,cell growth or viability,MTT,48 h,> 1120 µM
CC(C)C1=CC2=CC[C@@H]3[C@](C)(CCC[C@@]3(C)C(=O)OCC#CCN3CCOCC3)[C@H]2CC1,cytotoxicity,MTT,48 h,7.9 µM
C/C=C/C#CC#C/C=C/c1ccco1,cell growth or viability,MTT,72 h,162 µg/mL
COC(=O)[C@]1(C)CCC[C@]2(C)[C@H]3C[C@H]4C(C(C)C)=C[C@]3(CC[C@H]21)[C@H]1[C@@H]4[C@@H](OCC#CCN2CCCC2)CC[C@@H]1O,cytotoxicity,MTT,48 h,19 µM
CCOC(=O)c1cnn2c1NN=C([N+](=O)[O-])C2(C)O (stereo not shown),,MTT,48 h,139 ± 11 µM
CC(C)c1ccc2c(c1)CC[C@H]1[C@](C)(C(=O)OCC#CCN3CCOCC3)CCC[C@]21C,cytotoxicity,MTT,48 h,89 µM
Cc1cc(-c2ccccc2)n2nc(-c3nc4sc5c(c4c(=O)o3)CCCCC5)nc2n1,,MTT,48 h,101 ± 2 µM
CC(C)c1ccc2c(c1)CC[C@H]1[C@](C)(C(=O)OCC#CCN3CCCC3)CCC[C@]21C,cytotoxicity,MTT,48 h,30.7 µM
OC12CC3CC(C1)CC(NCc1cnc(N4CCCCC4)nc1)(C3)C2,,MTT,,> 300 µM
CCOC(=O)c1nc2n(n1)C(C)(O)C([N+](=O)[O-])=NN2 (stereo not shown),,MTT,48 h,371 ± 22 µM
COC(=O)c1c(C)[nH]c2c3c(c(O)c(CN4CCOCC4)c12)[C@H]1C[C@@H]2[C@@]4(C)CCC[C@@](C)(C(=O)OC)[C@@H]4CC[C@@]32C=C1C(C)C,cytotoxicity,MTT,48 h,40 µM

# For quick reference, copied from above:
SMILES,observed,technique,time,CC50
CCN(CC)CC#CCO[C@H]1CC[C@H](O)[C@@H]2[C@H]1[C@H]1C[C@@H]3[C@@]4(C)CCC[C@@](C)(C(=O)OC)[C@@H]4CC[C@@]23C=C1C(C)C,cytotoxicity,MTT,48 h,92 µM
c1nc(N2CCCCCC2)cnc1CNC12CC3CC(CC(C3)C1)C2,,MTT,,45.7 µM
